Experimental data gathered from unrelated publications.
Each line is one published result; not all experiments were run side by side. ± marks the error that the study gave.
Cell line: HT-29

The IC50 of `CCCCSc1nc(N)c2c(F)c(C#N)c(F)c(Cl)c2n1` is reported as 59.4 µM (cell growth or viability, MTT; 96 h).
With `COc1cc(C2COc3cc(O)cc(O)c3C2=NO)c(OC)cc1O` (centres unmarked) the IC50 was 31.4 µM (cell growth or viability, MTT; 72 h).
With `CN(C)CCCO/N=C1/C=C2CCC3C(CC[C@]4(C)/C(=C/c5ccccn5)CCC34)[C@@]2(C)CC1` (some centres unmarked) the IC50 was > 100 µM (cell growth or viability, MTT; 72 h).
The IC50 of `CCCCCCCCCCCCCCCC(=O)O[C@H]1[C@H](C)O[C@@H](O[C@H]2[C@H](N(C)C)[C@@H](O)[C@H](O[C@H]3[C@@H](CC=O)C[C@@H](C)[C@@H](O[C@H]4CC[C@H](N(C)C)[C@@H](C)O4)/C=C/C=C/C[C@@H](C)OC(=O)C[C@@H](O)[C@@H]3OC)O[C@@H]2C)C[C@@]1(C)O` is reported as 3.94 µM (cell growth or viability, CCK-8; 72 h).
`COCCOCCSc1nc(N)c2c(F)c(C#N)c(F)c(F)c2n1` gave an IC50 of 4.93 µM (cell growth or viability, MTT; 96 h).
`CO[C@@H]1[C@@H](O[C@@H]2O[C@H](C)[C@@H](O[C@H]3C[C@@](C)(O)[C@@H](OC(=O)CN4CCOCC4)[C@H](C)O3)[C@H](N(C)C)[C@H]2O)[C@@H](CC=O)C[C@@H](C)[C@@H](O[C@H]2CC[C@H](N(C)C)[C@@H](C)O2)/C=C/C=C/C[C@@H](C)OC(=O)C[C@H]1O` has an IC50 of 4.19 µM (cell growth or viability, CCK-8; 72 h).
The IC50 of `N=C(N)NCCC[C@@H](N)C(=O)N[C@@H](Cc1c[nH]c2ccccc12)C(=O)N[C@@H](CCC(N)=O)C(=O)N[C@@H](Cc1c[nH]c2ccccc12)C(=O)N[C@@H](CCCNC(=N)N)C(=O)N[C@@H](Cc1c[nH]c2ccccc12)C(=O)N[C@@H](CCC(N)=O)C(=O)N[C@@H](Cc1c[nH]c2ccccc12)C(=O)N[C@@H](CCCNC(=N)N)C(N)=O` is reported as > 135 µM (cell growth or viability, MTT).
`CN1CCN(C(=O)c2cn(C34CCCC(C)(CCC5C3CC5(C)C)C4)nn2)CC1` (centres unmarked) has an IC50 of 22 µM (cell growth or viability, CCK-8; 72 h).
The IC50 of `Cn1ccn(N=Cc2ccccc2SSc2ccccc2C=Nn2ccn(C)c2=S)c1=S` is reported as 0.85 ± 0.15 µM (cell proliferation, MTT; 72 h).
`N#Cc1c(F)c(Cl)c2nc(SCc3ccccc3)nc(N)c2c1F` has an IC50 of 35.5 µM (cell growth or viability, MTT; 96 h).
`CCCCCCCC(=O)Oc1c(C)c(OC)c2c(c1C)OC(=O)[C@@H](CCCCCC)[C@]2(O)/C=C/c1ccccc1` (racemic) gave an IC50 of > 50 µM (cell growth or viability, SRB; 72 h).
The IC50 of `CN1CCC(S(=O)(=O)NC23CCCC(C)(CCC4C2CC4(C)C)C3)CC1` (centres unmarked) is reported as 7.3 µM (cell growth or viability, CCK-8; 72 h).
`C[C@]12CC/C(=N/O)C=C1CCC1C2CC[C@]2(C)/C(=C/c3ccccn3)CCC12` (some centres unmarked) gave an IC50 of 10.6 µM (cell growth or viability, MTT; 72 h).
For `O=C(C[c-]1cccc1)Oc1ccc(-n2cccc2)cc1.[Fe+2].c1cc[cH-]c1`, the IC50 was 283 µM (cell growth or viability, MTT).
With `CC12CCCC(n3cc(C(=O)N4CC(N)C4)nn3)(C1)C1CC(C)(C)C1CC2` (centres unmarked) the IC50 was 7.11 µM (cell growth or viability, CCK-8; 72 h).
For `O=C(/C=C(O)/C=C/c1cccs1)/C=C/c1cccs1`, the IC50 was > 75 µM (cell growth or viability, MTT; 72 h).
With `CC1CN(C(=O)c2cn(C34CCCC(C)(CCC5C3CC5(C)C)C4)nn2)CCN1` (centres unmarked) the IC50 was 4.94 µM (cell growth or viability, CCK-8; 72 h).
The IC50 of `Oc1ccc(Br)cc1C=NNC(=S)Nc1ccccc1` is reported as 6 ± 1 µM (cell growth, MTT; 72 h).
With `COc1c(C)c(OC(=O)c2ccccc2)c(C)c(OC(=O)c2ccccc2)c1C(=O)/C=C/c1ccccc1` the IC50 was 33.8 µM (cell growth or viability, SRB; 72 h).
For `N#Cc1c(F)c(F)c2nc(SCC3CCCO3)nc(N)c2c1F` (centres unmarked), the IC50 was 9.62 µM (cell growth or viability, MTT; 96 h).
`O=C(CN1CCC(c2noc3cc(F)ccc23)CC1)N1CCC(=C2c3ncccc3CCc3cc(Cl)cc(Br)c32)CC1` gave an IC50 of 45 µM (cell growth or viability, SRB).
For `O=C1c2ccccc2C2C(=O)c3ccccc3OC12` (centres unmarked), the IC50 was 4.07 µg/mL (cell growth or viability, resazurin; 96 h).
With `COCCSc1nc(N)c2c(F)c(C#N)c(F)c(Cl)c2n1` the IC50 was 7.97 µM (cell growth or viability, MTT; 96 h).
`C[C@]12CC/C(=N\OCCN3CCCCC3)C=C1CCC1C2CC[C@]2(C)/C(=C/c3ccccn3)CCC12` (some centres unmarked) has an IC50 of 23.9 µM (cell growth or viability, MTT; 72 h).
`CO[C@@H]1[C@@H](O[C@@H]2O[C@H](C)[C@@H](O[C@H]3C[C@@](C)(O)[C@@H](OC(=O)c4ccccc4)[C@H](C)O3)[C@H](N(C)C)[C@H]2O)[C@@H](CC=O)C[C@@H](C)[C@@H](O[C@H]2CC[C@H](N(C)C)[C@@H](C)O2)/C=C/C=C/C[C@@H](C)OC(=O)C[C@H]1O` gave an IC50 of 3.49 µM (cell growth or viability, CCK-8; 72 h).
The IC50 of `CSc1nc(N)c2c(F)c(C#N)c(F)c(Cl)c2n1` is reported as 6.77 µM (cell growth or viability, MTT; 96 h).
`CCCCCC(=O)O[C@H]1[C@H](C)O[C@@H](O[C@H]2[C@H](N(C)C)[C@@H](O)[C@H](O[C@H]3[C@@H](CC=O)C[C@@H](C)[C@@H](O[C@H]4CC[C@H](N(C)C)[C@@H](C)O4)/C=C/C=C/C[C@@H](C)OC(=O)C[C@@H](O)[C@@H]3OC)O[C@@H]2C)C[C@@]1(C)O` has an IC50 of 6.44 µM (cell growth or viability, CCK-8; 72 h).
With `COc1ccc(CN2C(=O)C(=O)c3cc(NC(C)=O)ccc32)cc1` the IC50 was 34.4 µM (cell growth or viability, MTT; 48 h).
`NS(=O)(=O)c1ccc(NC(=O)NN[C@@H]2O[C@H](CO)[C@@H](O)[C@H](O)[C@@H]2O)cc1` gave an IC50 of 82 µM (cell growth or viability, MTT; 96 h).
The IC50 of `COc1c(C)c(OS(=O)(=O)c2ccccc2)c(C)c(O)c1C(=O)/C=C/c1ccccc1` is reported as 26.7 µM (cell growth or viability, SRB; 72 h).
`CO[C@@H]1[C@@H](O[C@@H]2O[C@H](C)[C@@H](O[C@H]3C[C@@](C)(O)[C@@H](OC(=O)NC4CCCCC4)[C@H](C)O3)[C@H](N(C)C)[C@H]2O)[C@@H](CC=O)C[C@@H](C)[C@@H](O[C@H]2CC[C@H](N(C)C)[C@@H](C)O2)/C=C/C=C/C[C@@H](C)OC(=O)C[C@H]1O` gave an IC50 of > 50 µM (cell growth or viability, CCK-8; 72 h).
With `Cn1c(SCC(=O)N2CCC(=C3c4ncccc4CCc4cc(Cl)cc(Br)c43)CC2)nnc1-c1ccccc1` the IC50 was 65 µM (cell growth or viability, SRB).
With `O=C(CN1C(=O)S/C(=C\c2ccccc2)C1=O)Nc1ccc(C(=O)Nc2ccc(F)cc2)cc1` the IC50 was 27.9 µM (cell growth or viability, MTT).
The IC50 of `CO[C@@H]1[C@@H](O[C@@H]2O[C@H](C)[C@@H](O[C@H]3C[C@@](C)(O)[C@@H](O)[C@H](C)O3)[C@H](N(C)C)[C@H]2O)[C@@H](CC=O)C[C@@H](C)[C@@H](O[C@H]2CC[C@H](N(C)C)[C@@H](C)O2)/C=C/C=C/C[C@@H](C)OC(=O)C[C@H]1OC(=O)c1ccc(C(C)(C)C)cc1` is reported as 5.95 µM (cell growth or viability, CCK-8; 72 h).
`C=C1CC(OC(=O)C(C)(O)CCl)C2C(=C)C(=O)OC2C2C1CC(O)C2(O)CCl` (centres unmarked) has an IC50 of 0.04 µg/mL (cell growth or viability).
For `COc1ccccc1/C=C1\SC(=O)N(CC(=O)Nc2ccc(C(=O)Nc3ccc([N+](=O)[O-])cc3)cc2)C1=O`, the IC50 was 47.2 µM (cell growth or viability, MTT).
The IC50 of `C[C@]12CC/C(=N\OCCN3CCOCC3)C=C1CCC1C2CC[C@]2(C)/C(=C/c3ccccn3)CCC12` (some centres unmarked) is reported as 7.8 µM (cell growth or viability, MTT; 72 h).
The IC50 of `COCCOCCSc1nc(N)c2c(F)c(C#N)c(F)c(Cl)c2n1` is reported as 6.35 µM (cell growth or viability, MTT; 96 h).
`CCCCCCCC(=O)O[C@H]1[C@H](C)O[C@@H](O[C@H]2[C@H](N(C)C)[C@@H](O)[C@H](O[C@H]3[C@@H](CC=O)C[C@@H](C)[C@@H](O[C@H]4CC[C@H](N(C)C)[C@@H](C)O4)/C=C/C=C/C[C@@H](C)OC(=O)C[C@@H](O)[C@@H]3OC)O[C@@H]2C)C[C@@]1(C)O` has an IC50 of 5.42 µM (cell growth or viability, CCK-8; 72 h).
For `CC12CCCC(n3cc(C(=O)N4CCC(N)CC4)nn3)(C1)C1CC(C)(C)C1CC2` (centres unmarked), the IC50 was 6.05 µM (cell growth or viability, CCK-8; 72 h).
The IC50 of `CO[C@@H]1[C@@H](O[C@@H]2O[C@H](C)[C@@H](O[C@H]3C[C@@](C)(O)[C@@H](OC(=O)c4ccc(C(C)(C)C)cc4)[C@H](C)O3)[C@H](N(C)C)[C@H]2O)[C@@H](CC=O)C[C@@H](C)[C@@H](O[C@H]2CC[C@H](N(C)C)[C@@H](C)O2)/C=C/C=C/C[C@@H](C)OC(=O)C[C@H]1O` is reported as 0.91 µM (cell growth or viability, CCK-8; 72 h).
For `NS(=O)(=O)c1ccc(NC(=O)NN[C@@H]2OC[C@H](O)[C@H](O)[C@H]2O)cc1`, the IC50 was 90 µM (cell growth or viability, MTT; 96 h).
With `CCNC(=O)Nc1ccc(S(=O)(=O)Oc2ccccc2CC)cc1` the IC50 was 3.1 µM (cell growth or viability, SRB; 48 h).
With `Nn1c(SCC(=O)N2CCC(=C3c4ncccc4CCc4cc(Cl)cc(Br)c43)CC2)nnc1-c1ccccc1` the IC50 was < 15 µM (cell growth or viability, SRB).
The IC50 of `CN1CCCC1CCO/N=C1/C=C2CCC3C(CC[C@]4(C)/C(=C/c5ccccn5)CCC34)[C@@]2(C)CC1` (some centres unmarked) is reported as > 100 µM (cell growth or viability, MTT; 72 h).
`CCCCCCCCSc1nc(N)c2c(F)c(C#N)c(F)c(F)c2n1` gave an IC50 of > 100 µM (cell growth or viability, MTT; 96 h).
`Clc1cc(Br)c2c(c1)CCc1cccnc1C2=C1CCNCC1` has an IC50 of < 15 µM (cell growth or viability, SRB).
